Measurements of several laboratories.
Several values in a cell are separate wells, animals, samples, runs or records. ± gives the spread as reported.

SMILES = O=C(N1CCCC1)n1cc(-c2ccc(-c3ccccc3)cc2)nn1; tested on = mouse T cells; test = N-terminal labelling proteomics, item: EFHD2 N-terminal peptides; setting = 0.001 µM, 6 h; how to read = relative to: DMSO; measurement = SILAC ratio; value = 0.97
SMILES = CNS(=O)(=O)Nc1nccc(Cc2c(C)c3ccc(Oc4ncccc4F)cc3oc2=O)c1F; tested on = SNG-M; test = cell viability, CellTiter-Glo; setting = 7 days; measurement = IC50; value = 238 nM
SMILES = COC(=O)c1cc(NC2=NC(=O)C(=Cc3ccc(C)cc3)S2)ccc1OC(C)=O; tested on = MCF7; test = GC-MS, item: L-Isoleucine; setting = 1 µM; how to read = relative to: DMSO; measurement = metabolite level; value = 0.34 fold change
SMILES = COC1CN([C@H]2CC[C@H]([C@@]3(C)Oc4c(Cl)cc(C(=O)NCc5c(SC)cc(C)[nH]c5=O)c(C)c4O3)CC2)C1; test = RNA-seq, item: COMMD3-BMI1; system = human cancer patients, whole blood; setting = dose not given, 24 h, PRC2 target gene; how to read = relative to: pretreatment sample; measurement = log2 fold change; value = 1.25
SMILES = NC1=C(Cl)C(=O)c2ccccc2C1=O; tested on = HuCC-A1; test = MTT; how to read = relative to: IC50 MRC-5 over IC50 HuCC-A1; measurement = selectivity index; value = 1.32
SMILES = CC(=O)N1c2ccc(-c3ccc(CNC(=O)c4cn5cc(-c6cnc(N)nc6)nc(N6CCOCC6)c5n4)cc3)cc2CC[C@@H]1C; tested on = cancer cell line panel; test = CellTiter-Glo; setting = 5 d, range over 64 cell lines; measurement = GI50; value = 0.0088 to 0.814 µM
SMILES = O=C(C[Se]C(=O)c1cccnc1Nc1cccc(C(F)(F)F)c1)Nc1cccc(C(F)(F)F)c1; tested on = NCI60 breast subpanel mean; test = cell growth; measurement = TGI; value = 4.86 µM
SMILES = CC[C@@H](C)[C@@H](NC(=O)[C@@H](Cc1ccc(O)cc1)NC(=O)[C@H]1CCCN1C(=O)[C@@H](CCCNC(=N)N)NC(=O)[C@H](N)Cc1c[nH]cn1)C(=O)N[C@H](C)C(=O)N[C@H](Cc1c[nH]cn1)C(=O)N[C@H](CCCNC(=N)N)C(=O)N[C@@H](C(=O)N[C@H](Cc1ccc(O)cc1)C(=O)N[C@H](CO)C(=O)N[C@H](Cc1ccccc1)C(=O)NCC(=O)NCC(=O)NCC(=O)N[C@@H](CCCCNC(=O)CCCC[C@@H]1SC[C@@H]2NC(=O)N[C@@H]21)C(N)=O)C(C)C; tested on = HEK293T-OFP cells; test = flow cytometry; setting = concentration not given, with: biotin-labelled peptide; measurement = binding rate; value = 2.83% and 2.56% and 2.85%
SMILES = O=C(Nc1nnc2c1c(-c1ccc(Cl)cc1)nc1sc(=Cc3ccco3)c(=O)n12)c1ccccc1 (mixture of isomers); tested on = SNB-19; test = SRB; setting = 10 µM, NCI60 single-dose screen; how to read = relative to: untreated; measurement = cell growth; value = 32.6%
SMILES = COc1ccccc1-c1ccncc1C(=O)Nc1nnc(OCc2ccc(Cl)cc2)s1; tested on = DLD-1 BRCA2-/-; setting = 0.125 µM, single replicate; measurement = colony count; value = 39 and 37 and 35 and 45 and 44 and 47
SMILES = Cc1cccc(-c2cccc(C)n2)n1.Cc1cccc(-c2cccc(C)n2)n1.F[P-](F)(F)(F)(F)F.F[P-](F)(F)(F)(F)F.[Ru+2].c1ccc2c(c1)Cc1cc(-c3nc4c5cccnc5c5ncccc5c4[nH]3)ccc1-2; tested on = SK-MEL-28; test = cell viability; setting = dark, 1% O2; measurement = EC50; value = 22.4 ± 0.4 µM
SMILES = Cc1ncsc1-c1ccc(C(C)NC(=O)C2CC(O)CN2C(=O)C(NC(=O)CCCCCCCCCCN2CCCC(Nc3ncc(Cl)c(Nc4ccccc4S(=O)(=O)C(C)C)n3)C2)C(C)(C)C)cc1 (stereo not drawn); tested on = 22Rv1; test = RNA-seq, item: PHLDB3 mRNA; setting = concentration not given; how to read = relative to: DMSO; measurement = log2 fold change; value = -1.99
SMILES = CCN(CC)CC(=O)Nc1cccc(-n2cc(-c3ccc4ccc(-c5cn(-c6cccc(NC(=O)CN(CC)CC)c6)nn5)cc4c3)nn2)c1; tested on = RCC4; test = PCR angiogenesis array, item: FGFR3; setting = 5 x IC50, 6 h, normoxia; how to read = relative to: untreated; measurement = fold regulation; value = -1.42
SMILES = Cc1cc(Cl)cc(-c2ccnc3cc(CN4C(=O)C5C(C4=O)C5(C)C)sc23)c1C[C@@H]1CNCCO1 (stereo partly drawn); tested on = CHP-212 resistant subline R3; test = annexin V/PI flow cytometry; setting = 1 µM, 48 h; measurement = viable cells; value = 77.7% and 83.2% and 80.9%
SMILES = O=C(C[Se]C(=O)c1cc2ccccc2s1)Nc1cccc(C(F)(F)F)c1; tested on = NCI60 prostate subpanel (PC-3, DU-145); test = total growth inhibition, inhibitor; setting = five-dose; measurement = mean TGI; value = 2.96 µM
SMILES = COC(=O)c1cc(NC2=NC(=O)C(=Cc3ccc(N(C)C)cc3)S2)ccc1OC(C)=O; tested on = A549; test = item: YWHAH; setting = 2.93 µM, 24 h; how to read = relative to: DMSO; measurement = mRNA level; value = 169 fold change
SMILES = Cc1cc(NC2CCN(C)CC2)ccc1-c1cc2c(N3CCC[C@H](C(=O)N[C@H](C)c4ccccc4)C3)ncnc2[nH]1; tested on = NCI-H3122; test = cell growth or viability, MTT; setting = 0.04 µg/mL, 72 h; measurement = inhibition; value = 16.8%
SMILES = CSCC[C@H](NC(=O)[C@H](CCC(N)=O)NC(=O)[C@H](CCCCN)NC(=O)[C@H](CCCNC(=N)N)NC(=O)[C@H](Cc1ccc(O)cc1)NC(=O)[C@H](CCCNC(=N)N)NC(=O)[C@H](CO)NC(=O)[C@H](Cc1ccc(O)cc1)NC(=O)[C@H](CO)NC(=O)[C@H](CC(=O)O)NC(=O)[C@@H](NC(=O)[C@@H](N)Cc1ccccc1)[C@@H](C)O)C(=O)N[C@@H](C)C(=O)N[C@H](C(=O)N[C@@H](CCCCN)C(=O)N[C@@H](CCCCn1cc(C[C@H](NC(=O)CNC(=O)[C@H](CO)NC(=O)[C@H](CCCNC(=N)N)NC(=O)[C@H](CO)NC(=O)[C@H](CC(C)C)NC(=O)[C@H](CC(C)C)NC(=O)CNC(=O)[C@H](C)NC(=O)[C@H](CC(C)C)NC(=O)[C@H](CCCNC(=N)N)NC(=O)[C@H](Cc2c[nH]cn2)NC(=O)[C@@H](NC(=O)[C@@H](N)C(C)C)[C@@H](C)O)C(=O)N[C@H](C(=O)N[C@H](C(=O)N[C@@H](CCCCN)C(=O)N[C@@H](CC(N)=O)C(=O)N[C@@H](CC(N)=O)C(=O)N[C@@H](Cc2ccccc2)C(=O)N[C@H](C(=O)N2CCC[C@H]2C(=O)N[C@H](C(=O)N[C@@H](CC(N)=O)C(=O)N[C@H](C(=O)NCC(=O)N[C@@H](CO)C(=O)N[C@@H](CCCCN)C(=O)N[C@@H](C)C(=O)N[C@@H](Cc2ccccc2)C(N)=O)C(C)C)[C@@H](C)O)C(C)C)C(C)C)C(C)C)nn1)C(=O)N[C@@H](Cc1ccc(O)cc1)C(=O)N[C@@H](CC(C)C)C(=O)N[C@@H](C)C(=O)N[C@@H](C)C(=O)N[C@H](C(=O)N[C@@H](CC(C)C)C(=O)NCC(=O)N[C@@H](CCCCN)C(=O)N[C@@H](CCCNC(=N)N)C(=O)N[C@@H](Cc1ccc(O)cc1)C(=O)N[C@@H](CCCCN)C(=O)N[C@@H](CCC(N)=O)C(=O)N[C@@H](CCCNC(=N)N)C(=O)N[C@H](C(=O)N[C@@H](CCCCN)C(=O)N[C@@H](CC(N)=O)C(=O)N[C@@H](CCCCN)C(N)=O)C(C)C)C(C)C)C(C)C; tested on = transfected COS-7 cells; test = cAMP accumulation, antagonist; setting = with: VIP; measurement = A2; value = 3.16 µM
SMILES = Cc1cc(NC(=O)c2cccc(N)c2)ccc1Nc1nccc(-c2cccnc2)n1; tested on = HEK293 AP-1 reporter; test = AP-1 promoter, luciferase; setting = concentration not given, 6 h, unit not given, with: PMA; how to read = relative to: PMA alone; measurement = reporter activity; value = 0.765
SMILES = Cc1cccc(-c2cccc(C)n2)n1.Cc1cccc(-c2cccc(C)n2)n1.F[P-](F)(F)(F)(F)F.F[P-](F)(F)(F)(F)F.[Ru+2].c1ccc(-c2nc3c4cccnc4c4ncccc4c3[nH]2)cc1; tested on = SK-MEL-28; test = cell viability; setting = dark, 1% O2; measurement = EC50; value = 281 ± 15 µM
SMILES = COc1ccc(NC(=O)c2ccc3[nH]c(-c4ccc(N(C)C)cc4)nc3c2)cn1; tested on = HCT116; test = IncuCyte; setting = concentration not given, 2 h; measurement = dead cell to confluence ratio; value = 2.67 and 0.872 and 2.97
SMILES = Cn1ncc2cc(-c3cncc(Cl)c3N3CCC4(CCNC4=O)CC3)ccc21; tested on = LS174T; test = gene expression, microarray, item: SLC39A8 mRNA; setting = concentration not given, 4 h; how to read = relative to: untreated cells; measurement = log2 fold change; value = -2.07
SMILES = CN1CCCNC(=O)c2cccc(c2)C(=O)NCCCN(C)CCCNc2cccc3c2C(=O)c2cccc(c2C3=O)NCCC1; tested on = SAS; test = RNA-Seq, item: MACC1 mRNA; setting = 1 µM, 6 h; how to read = relative to: untreated cells; measurement = log2 fold change; value = -1.9
SMILES = CC(=O)Oc1ccccc1C(=O)[Se]CC(=O)Nc1cccc(C(F)(F)F)c1; tested on = NCI60 prostate subpanel (PC-3, DU-145); test = cell growth, inhibitor; setting = five-dose; measurement = GI50; value = 3.66 µM
SMILES = CC(C)c1ccc(N(C)c2ccc3c(c2)OCC[C@H]3CNc2cnccc2C(=O)O)cc1; tested on = SNB-19; test = cell growth or viability, ATP luminescence; setting = 7 days; measurement = IC50; value = 11.6 nM
SMILES = O=C(C[Se]C(=O)c1cc2ccccc2o1)Nc1cccc(C(F)(F)F)c1; tested on = NCI60 prostate subpanel (PC-3, DU-145); test = cell growth; setting = 10 µM, 48 h, one-dose; measurement = mean growth percent; value = -79.9%
SMILES = CO[C@@H]1[C@@H](OC(=O)c2ccc(C)[nH]2)[C@@H](O)[C@H](Oc2ccc3c(O)c(NC(=O)c4c[nH]c(C(=O)Nc5c(O)c6ccc(O[C@@H]7OC(C)(C)[C@H](OC)[C@@H](OC(=O)c8ccc(C)[nH]8)[C@H]7O)c(C)c6oc5=O)c4C)c(=O)oc3c2C)OC1(C)C; tested on = HaCaT Tet-On cells, uninduced; setting = 7.5 µM; how to read = relative to: DMSO; measurement = cell number; value = 53%
SMILES = CCC(=CCc1c(O)cc2c(c1O)C(=O)CC(c1ccc(O)cc1)O2)CC (stereo not drawn); tested on = HeLa; test = annexin V/PI; setting = 12 µM, 48 h; measurement = late apoptotic cells; value = 8.81 ± 0.05%
SMILES = Cc1[nH][n+]([Pt-2]([Cl])([n+]2[nH]c(C)c(CSCc3ccccc3)c2C)[n+]2[nH]c(C)c(CSCc3ccccc3)c2C)c(C)c1CSCc1ccccc1.[Cl-]; tested on = Jurkat; test = cytotoxicity; how to read = relative to: IC50 HEK293 over IC50 Jurkat; measurement = selectivity index; value = 6.7
SMILES = [Cl-].[Cl-].[Ru+2].c1ccc(-c2ccccn2)nc1.c1ccc(-c2ccccn2)nc1.c1ccc2cc3nc4c5cccnc5c5ncccc5c4nc3cc2c1; tested on = SK-MEL-28; setting = light 633 nm, oxygen 18.5%; how to read = relative to: dark EC50 over light EC50; measurement = phototherapeutic index; value = 221
SMILES = CO[C@@H]1[C@@H](OC(N)=O)[C@@H](O)[C@H](Oc2ccc3c(O)c(NC(=O)c4ccc(O)c(CC=C(C)C)c4)c(=O)oc3c2C)OC1(C)C; tested on = DLD-1 BRCA2-/-; setting = 150 µM, mean of replicates A, B; how to read = relative to: untreated; measurement = colony survival; value = 0.326%
SMILES = COc1ccc2c(c1)c(CC(=O)[Se]CC(=O)Nc1cccc(C(F)(F)F)c1)c(C)n2C(=O)c1ccc(Cl)cc1; tested on = NCI60 prostate subpanel (PC-3, DU-145); test = cell growth; setting = 10 µM, 48 h, one-dose; measurement = mean growth percent; value = -81.9%
SMILES = CCN(C(=O)c1cc(F)ccc1Oc1nncnc1N1CCC2(C1)CN([C@H](CCCN(C)CCOC)C(C)C)C2)C(C)C; tested on = Hs 729; test = cell growth; setting = 72 h; measurement = GI50; value = > 10 µM

A few entries again:
SMILES = O=C(N1CCCC1)n1cc(-c2ccc(-c3ccccc3)cc2)nn1; tested on = mouse T cells; test = N-terminal labelling proteomics, item: EFHD2 N-terminal peptides; setting = 0.001 µM, 6 h; how to read = relative to: DMSO; measurement = SILAC ratio; value = 0.97
SMILES = CO[C@@H]1[C@@H](OC(=O)c2ccc(C)[nH]2)[C@@H](O)[C@H](Oc2ccc3c(O)c(NC(=O)c4c[nH]c(C(=O)Nc5c(O)c6ccc(O[C@@H]7OC(C)(C)[C@H](OC)[C@@H](OC(=O)c8ccc(C)[nH]8)[C@H]7O)c(C)c6oc5=O)c4C)c(=O)oc3c2C)OC1(C)C; tested on = HaCaT Tet-On cells, uninduced; setting = 7.5 µM; how to read = relative to: DMSO; measurement = cell number; value = 53%
SMILES = Cc1cc(NC(=O)c2cccc(N)c2)ccc1Nc1nccc(-c2cccnc2)n1; tested on = HEK293 AP-1 reporter; test = AP-1 promoter, luciferase; setting = concentration not given, 6 h, unit not given, with: PMA; how to read = relative to: PMA alone; measurement = reporter activity; value = 0.765
SMILES = CN1CCCNC(=O)c2cccc(c2)C(=O)NCCCN(C)CCCNc2cccc3c2C(=O)c2cccc(c2C3=O)NCCC1; tested on = SAS; test = RNA-Seq, item: MACC1 mRNA; setting = 1 µM, 6 h; how to read = relative to: untreated cells; measurement = log2 fold change; value = -1.9
